Published values from different studies.
Every numbered part comes from another study and shows a few of its results, in no order. Substitutions count along the parent as printed.

Series 1
Target: Histone acetyltransferase KAT6A, winged helix 2, GST fusion (KAT6A, Homo sapiens, UniProt Q92794, residues 85-181)
Technique: protein binding microarray
Molecule type: double-stranded DNA, one strand shown
Matrix: in vitro
Concentration: not given
Notes: 8-mer, flanks averaged, mean of 2 arrays, mostly near background
Baseline: not given
Direction: higher = stronger binding
Target sequence (chain): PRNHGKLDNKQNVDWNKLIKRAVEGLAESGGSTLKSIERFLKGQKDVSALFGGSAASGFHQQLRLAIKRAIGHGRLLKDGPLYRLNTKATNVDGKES
Strand	E-score
AATCTCTG	-0.0612
ACAACCCG	-0.0491
GACGCCCA	-0.021
CAATCCAG	0.0913
CCTGCTTA	-0.0244
ATCGTTTC	-0.0684

Series 2
Target: Sal-like protein 4, full length isoform B (SALL4, Homo sapiens, UniProt Q9UJQ4-2, residues 1-616)
Technique: universal PBM
Molecule type: double-stranded DNA, one strand shown
Matrix: in vitro
Concentration: not given
Notes: 8-mer, flanks averaged, mean of replicates
Direction: higher = stronger binding
Strand	E-score
CACCGTCA	-0.0181
CCCCCTTC	-0.29
AGCGCTAT	0.154
GTGCAGTA	-0.0877
GCTACCCC	-0.178
CAGCGACG	-0.241
ATCATTCA	0.253

Series 3
Target: CCND3, cyclin fold, Cln2 fusion (human)
Technique: yeast growth competition, sequencing
Matrix: yeast
Notes: weak parent motif
Baseline: not given
Direction: higher = stronger binding
Starting sequence: BRCA2 docking peptide (human); PSIKRNLLNEFDR
Variant	normalised enrichment score
D12H	0.131
R5N	0.0117
R13L	0.0135
K4E	0.0864

Single results of other studies
Molecule	target	assay	system	conditions	how to read	measurement	result
PhoQ, residues 284 288 289 292 302 303 TAVSDG	PhoP, residues 12 14 15 18 19 TTLRV (Escherichia coli, UniProt P23836)	Sort-seq, item: YFP reporter	E. coli	PhoQ-PhoP variant library, added: 10 µM Mg2+	baseline: high Mg2+ state, higher = stronger signaling	fold induction	2.22

Some of these lines once more (series 2):
Strand	E-score
CCCCCTTC	-0.29
CAGCGACG	-0.241
AGCGCTAT	0.154
